Measurements collected from several papers.
Compare with care: the assays were run in different laboratories. Several values in a cell are separate wells, animals, samples, runs or records. Numbers after ± are the reported error.

Compound | tested on | test | system | conditions | how to read | endpoint | result
CC[C@H](C)[C@H](NC(=O)[C@H](C)NC(=O)[C@H](CCC(=O)O)NC(=O)[C@H](CCC(=O)O)NC(=O)[C@H](CC(C)C)NC(=O)[C@H](CCCCN)NC(=O)[C@H](CCCCN)NC(=O)[C@H](CCSC)NC(=O)[C@H](CCC(=O)O)NC(=O)[C@H](Cc1ccc(O)cc1)NC(=O)[C@H](CCC(=O)O)NC(=O)[C@H](CC(C)C)NC(=O)[C@H](CC(=O)O)NC(=O)[C@H](CC(C)C)NC(=O)[C@H](Cc1ccccc1)NC(=O)[C@H](Cc1ccccc1)NC(=O)[C@@H](NC(=O)[C@H](CC(N)=O)NC(=O)[C@@H](NC(=O)[C@H](CCC(N)=O)NC(=O)[C@H](CC(=O)O)NC(=O)[C@H](CC(C)C)NC(=O)[C@@H](N)CO)[C@@H](C)CC)C(C)C)C(=O)N[C@@H](CCCCN)C(=O)N[C@@H](CCCCN)C(=O)N[C@@H](CC(C)C)C(=O)N[C@@H](CCC(=O)O)C(=O)N[C@@H](CCC(=O)O)C(=O)N[C@H](C(=O)N[C@@H](Cc1ccc(O)cc1)C(=O)N[C@H](C(=O)N[C@@H](CC(=O)O)C(=O)N[C@@H](CC(C)C)C(=O)N[C@@H](CCCCN)C(=O)N[C@@H](CCC(=O)O)C(=O)N[C@@H](CC(C)C)C(=O)O)[C@@H](C)CC)[C@@H](C)O | SARS-CoV-2 Alpha pseudovirus | pseudovirus infection, inhibitor, luciferase | Caco-2 | 24 h, dual mutations |  | IC50 | 587 nM
CC(C)[C@H]1CC[C@@H](N2CCC3(CC2)C(=O)NCN3c2ccccc2)CC1 |  | twitch contraction, electrical stimulation | NOP(-/-) mice, mouse vas deferens |  |  | Emax | 98 ± 1 % inhibition
Cc1ccc(S(=O)(=O)Nc2cccc(C(=O)NC3CCN(c4ncnc5[nH]cnc45)CC3)c2)cc1Cl | SARS-CoV-2 |  | Wuhan-Hu-1 | 66.67 µM | relative to: untreated infected cells | relative infection | 20%
CC1=C[C@@H](CN2CCN(c3ncccn3)CC2)[C@H](C(C)C)C[C@H]1Cc1nnc(Cc2c[nH]c3ccccc23)o1 | SARS-CoV-2 nsp5 C145A | reporter gene, cell-based secondary screen |  |  |  | luciferase signal | 110 ± 9.1%
CC[C@H](C)[C@H](NC(=O)[C@H](CC(C)C)NC(=O)[C@H](Cc1ccc(OP(=O)(O)O)cc1)NC(=O)[C@H](CCC(=O)O)NC(=O)[C@H](CC(=O)O)NC(=O)[C@H](C)NC(=O)[C@H](CC(=O)O)NC(=O)[C@@H](NC(=O)[C@H](CC(C)C)NC(=O)CCCC[C@@H]1SC[C@@H]2NC(=O)N[C@@H]21)C(C)C)C(=O)N1CCC[C@H]1C(=O)N[C@@H](CCC(N)=O)C(=O)N[C@@H](CCC(N)=O)C(=O)NCC(=O)O | YopH wild type | binding |  |  | relative to: wild type over mutant enzyme | apparent KD ratio | 4.5 fold
CC[C@H](C)[C@H](NC(=O)[C@H](C)NC(=O)[C@H](CCC(=O)O)NC(=O)[C@H](CCC(=O)O)NC(=O)[C@H](CC(C)C)NC(=O)[C@H](CCCCN)NC(=O)[C@H](CCCCN)NC(=O)[C@H](CCSC)NC(=O)[C@H](CCC(=O)O)NC(=O)[C@H](Cc1ccc(O)cc1)NC(=O)[C@H](CCC(=O)O)NC(=O)[C@H](CC(C)C)NC(=O)[C@H](CC(=O)O)NC(=O)[C@H](CC(C)C)NC(=O)[C@H](Cc1ccccc1)NC(=O)[C@@H](NC(=O)[C@@H](NC(=O)[C@H](CC(N)=O)NC(=O)[C@@H](NC(=O)[C@H](CCC(N)=O)NC(=O)[C@H](CC(=O)O)NC(=O)[C@H](CC(C)C)NC(=O)[C@H](CO)NC(=O)[C@H](CC(C)C)NC(=O)[C@H](CC(=O)O)NC(=O)[C@@H]1CCCN1C(=O)[C@H](C)N)[C@@H](C)CC)C(C)C)[C@@H](C)O)C(=O)N[C@@H](CCCCN)C(=O)N[C@@H](CCCCN)C(=O)N[C@@H](CC(C)C)C(=O)N[C@@H](CCC(=O)O)C(=O)N[C@@H](CCC(=O)O)C(=O)N[C@@H](CO)C(=O)N[C@@H](Cc1ccc(O)cc1)C(=O)N[C@H](C(=O)N[C@@H](CC(=O)O)C(=O)N[C@@H](CC(C)C)C(=O)N[C@@H](CCCCN)C(=O)N[C@@H](CCC(=O)O)C(=O)N[C@@H](CC(C)C)C(=O)O)[C@@H](C)CC | SARS-CoV-2 Beta pseudovirus | pseudovirus infection, inhibitor, luciferase | Caco-2 | 24 h |  | IC50 | 420 nM
Cc1cc(C(=O)N[C@@H](Cc2cccc3ccccc23)C(=O)N[C@@H](CC(C)C)C(=O)N[C@H](C=O)C[C@@H]2CCCNC2=O)no1 | Norovirus | viral replication, RT-qPCR | norovirus replicon cells | four days |  | EC50 | 10 ± 10 nM
CC[C@H](C)[C@H](NC(=O)[C@H](C)NC(=O)[C@H](CCC(=O)O)NC(=O)[C@H](CCC(=O)O)NC(=O)[C@H](CC(C)C)NC(=O)[C@H](CCCCN)NC(=O)[C@H](CCCCN)NC(=O)[C@H](CCSC)NC(=O)[C@H](CCC(=O)O)NC(=O)[C@H](Cc1ccc(O)cc1)NC(=O)[C@H](CCC(=O)O)NC(=O)[C@H](CC(C)C)NC(=O)[C@H](CC(=O)O)NC(=O)[C@H](CC(C)C)NC(=O)[C@H](Cc1ccccc1)NC(=O)[C@@H](NC(=O)[C@@H](NC(=O)[C@H](CC(N)=O)NC(=O)[C@@H](NC(=O)[C@H](CCC(N)=O)NC(=O)[C@H](CC(=O)O)NC(=O)[C@H](CC(C)C)NC(=O)[C@@H](N)CO)[C@@H](C)CC)C(C)C)[C@@H](C)O)C(=O)N[C@@H](CCCCN)C(=O)N[C@@H](CCCCN)C(=O)N[C@@H](CC(C)C)C(=O)N[C@@H](CCC(=O)O)C(=O)N[C@@H](CCC(=O)O)C(=O)N[C@H](C(=O)N[C@@H](Cc1ccc(O)cc1)C(=O)N[C@H](C(=O)N[C@@H](CC(=O)O)C(=O)N[C@@H](CC(C)C)C(=O)N[C@@H](CCCCN)C(=O)N[C@@H](CCC(=O)O)C(=O)N[C@@H](CC(C)C)C(=O)O)[C@@H](C)CC)[C@@H](C)O | SARS-CoV-2 Beta pseudovirus | pseudovirus infection, inhibitor, luciferase | Caco-2 | 24 h |  | IC50 | 1570 nM
Cc1ccc(S(=O)(=O)Nc2cccc(C(=O)NC3CCN(c4ncnc5[nH]cnc45)CC3)c2)cc1 | monkeypox virus E1/E12 |  |  | 200 µM |  | inhibition | 16.6% and 25.7%
CC#Cc1ccc2c(=O)[nH]nc(Cc3ccc(F)c(C(=O)N4CCN(c5ccc(C#N)cn5)CC4)c3)c2c1 | PARP family members | PASTA |  |  | relative to: other PARPs over PARP7 | selectivity ratio | > 50 fold
CCCN(C)Cc1onc(-c2cccc(Cl)c2)c1-c1ccnc(N[C@@H]2CCN(C(=O)c3ccn(C)n3)C2)n1 | Plasmodium falciparum | parasite growth | 3D7 A10 | 72 h, asexual blood stage |  | EC50 | 11700 ± 6730 nM
CC[C@H](C)[C@H](NC(=O)[C@H](C)NC(=O)[C@H](CCC(=O)O)NC(=O)[C@H](CCC(=O)O)NC(=O)[C@H](CC(C)C)NC(=O)[C@H](CCCCN)NC(=O)[C@H](CCCCN)NC(=O)[C@H](CCSC)NC(=O)[C@H](CCC(=O)O)NC(=O)[C@H](Cc1ccc(O)cc1)NC(=O)[C@H](CCC(=O)O)NC(=O)[C@H](CC(C)C)NC(=O)[C@H](CC(=O)O)NC(=O)[C@H](CC(C)C)NC(=O)[C@H](Cc1ccccc1)NC(=O)[C@@H](NC(=O)[C@@H](NC(=O)[C@H](CC(N)=O)NC(=O)[C@@H](NC(=O)[C@H](CCC(N)=O)NC(=O)[C@H](CC(=O)O)NC(=O)[C@H](CC(C)C)NC(=O)[C@@H](N)CO)[C@@H](C)CC)C(C)C)[C@@H](C)O)C(=O)N[C@@H](CCCCN)C(=O)N[C@@H](CCCCN)C(=O)N[C@@H](CC(C)C)C(=O)N[C@@H](CCC(=O)O)C(=O)N[C@@H](CCC(=O)O)C(=O)N[C@@H](CO)C(=O)N[C@@H](Cc1ccc(O)cc1)C(=O)N[C@H](C(=O)N[C@@H](CC(=O)O)C(=O)N[C@@H](CC(C)C)C(=O)N[C@@H](CCCCN)C(=O)N[C@@H](CCC(=O)O)C(=O)N[C@@H](CC(C)C)C(=O)O)[C@@H](C)CC | SARS-CoV-2 | pseudovirus infection, inhibitor, luciferase | Caco-2, D614G pseudovirus | 24 h, dual mutations |  | IC50 | 409 nM
O=C(NC1CCN(c2ncnc3[nH]cnc23)CC1)c1cccc(NS(=O)(=O)c2ccc([N+](=O)[O-])cc2)c1 | SARS-CoV-2 |  | Wuhan-Hu-1 | 2.469 µM | relative to: untreated infected cells | relative infection | 36.5%
CC[C@H](C)[C@H](NC(=O)[C@H](C)NC(=O)[C@H](CCC(=O)O)NC(=O)[C@H](CCC(=O)O)NC(=O)[C@H](CC(C)C)NC(=O)[C@H](CCCCN)NC(=O)[C@H](CCCCN)NC(=O)[C@H](CCSC)NC(=O)[C@H](CCC(=O)O)NC(=O)[C@H](Cc1ccc(O)cc1)NC(=O)[C@H](CCC(=O)O)NC(=O)[C@H](CC(C)C)NC(=O)[C@H](CC(=O)O)NC(=O)[C@H](CC(C)C)NC(=O)[C@H](Cc1ccccc1)NC(=O)[C@@H](NC(=O)[C@@H](NC(=O)[C@H](CC(N)=O)NC(=O)[C@@H](NC(=O)[C@H](CCC(N)=O)NC(=O)[C@H](CC(=O)O)NC(=O)[C@H](CC(C)C)NC(=O)[C@@H](N)CO)[C@@H](C)CC)C(C)C)[C@@H](C)O)C(=O)N[C@@H](CCCCN)C(=O)N[C@@H](CCCCN)C(=O)N[C@@H](CC(C)C)C(=O)N[C@@H](CCC(=O)O)C(=O)N[C@@H](CCC(=O)O)C(=O)N[C@@H](C)C(=O)N[C@@H](Cc1ccc(O)cc1)C(=O)N[C@H](C(=O)N[C@@H](CC(=O)O)C(=O)N[C@@H](CC(C)C)C(=O)N[C@@H](CCCCN)C(=O)N[C@@H](CCC(=O)O)C(=O)N[C@@H](CC(C)C)C(=O)O)[C@@H](C)CC | SARS-CoV-2 JN.1 pseudovirus | pseudovirus infection, inhibitor, luciferase | Caco-2 | 24 h |  | IC50 | 1390 nM
Cc1ccccc1S(=O)(=O)Nc1cccc(C(=O)NC2CCN(c3ncnc4[nH]cnc34)CC2)c1 | SARS-CoV-2 |  | Wuhan-Hu-1 | 66.67 µM | relative to: untreated infected cells | relative infection | 23.4%

A few entries again:
Compound | tested on | test | system | conditions | how to read | endpoint | result
CC1=C[C@@H](CN2CCN(c3ncccn3)CC2)[C@H](C(C)C)C[C@H]1Cc1nnc(Cc2c[nH]c3ccccc23)o1 | SARS-CoV-2 nsp5 C145A | reporter gene, cell-based secondary screen |  |  |  | luciferase signal | 110 ± 9.1%
CC[C@H](C)[C@H](NC(=O)[C@H](CC(C)C)NC(=O)[C@H](Cc1ccc(OP(=O)(O)O)cc1)NC(=O)[C@H](CCC(=O)O)NC(=O)[C@H](CC(=O)O)NC(=O)[C@H](C)NC(=O)[C@H](CC(=O)O)NC(=O)[C@@H](NC(=O)[C@H](CC(C)C)NC(=O)CCCC[C@@H]1SC[C@@H]2NC(=O)N[C@@H]21)C(C)C)C(=O)N1CCC[C@H]1C(=O)N[C@@H](CCC(N)=O)C(=O)N[C@@H](CCC(N)=O)C(=O)NCC(=O)O | YopH wild type | binding |  |  | relative to: wild type over mutant enzyme | apparent KD ratio | 4.5 fold
